Published values gathered from unrelated publications.
Numbered parts are unrelated; each lists some results of a single study. Positions count from the first letter of the parent shown.

Block 1 — target: CCND1, cyclin fold, Cln2 fusion (human); method: yeast growth competition, sequencing; matrix: yeast; setting: weak parent motif; relative to: not given; reading: higher = stronger binding; measurement: normalised enrichment score
Starting sequence: RB1 docking peptide (human); PKPLKKLRFDIEG
PKPLKKLRFDPEG [I11P]: -0.433
PKPLKSLRFDIEG [K6S]: 0.0155
PKFLKKLRFDIEG [P3F]: -0.0951
PKPLKKLRFDIAG [E12A]: -0.458
PKPLKKTRFDIEG [L7T]: -0.72
PKSLKKLRFDIEG [P3S]: 0.332
PKPLKKLRFDIED [G13D]: 0.176
PKPLKKLRFDLEG [I11L]: 0.254
PKALKKLRFDIEG [P3A]: -0.0278
PKPLKKLRFDCEG [I11C]: 0.144
PKPLKKLRFDIEK [G13K]: 0.414
PEPLKKLRFDIEG [K2E]: 0.518
PKPLKKLRFQIEG [D10Q]: -0.2
PKPLKKLRFDIDG [E12D]: -0.702
PKMLKKLRFDIEG [P3M]: 0.151
PKCLKKLRFDIEG [P3C]: 0.935
PKPLQKLRFDIEG [K5Q]: 0.165
PKPLKWLRFDIEG [K6W]: 0.194
PKLLKKLRFDIEG [P3L]: 0.37
PKPQKKLRFDIEG [L4Q]: -0.445

Block 2 — method: RNA Bind-n-Seq; form: RNA; matrix: in vitro; tested at: 365 nM; relative to: no-protein control; reading: higher = stronger binding; measurement: RBNS enrichment (R)
Target: RNA binding protein fox-1 homolog 2, RRM domain, GST-SBP tag (RBFOX2, Homo sapiens, UniProt O43251-10, residues 100-194)
Setting: natural RNA segment, single round, ends assumed
All sequences stand within: GGGAGUUCUACAGUCCGACGAUC … UGGAAUUCUCGGGUGCCAA
GGCCUCCUCUCUCCAGUGAUGUAAGUGAAUGGAAGCCAUCACUGGCUGCACAUACCUUUUUCAAAAGGGACACUCGGGAAGUCACUGCUGUGACCGUUUCGAUGUUGAUA: 2.93
UGCAUCUAAUCCAAGCUUUGAAGGGUGUUGCUUGGGAGGAAACAAAUACAGCCUUCCAUCUUCACUCCAGUUAGGGAUCCUUUCAAAGUCUCCUUCACAGUGAGGAAAAA: 0.383
AAGCCAUUAGACUUAUAGGUGAUGCAAGCAUCUAAGAGAGAGGUUAAUCACACUAUAGAGGCAUAAGUGGUAUCAGUUUUCAUUUUUCUAAUUGUUUAAACUGUGUUUUA: 0.653
UCUCUGAGGGGCGCCAUCUUGACCUUGUGGUUCUCUCUGCAUCUUGACCUCUGUCUUGACAGUGCCCUCCACAACUGUGUCCUGUGUGGGAGACUCACCCCACACGCCCU: 3.7
CCUUGUUUUCCUUUUUCUUUCAGUUUUGGACUUUGGACCCUGCACAGCCGUUCCCCAGGGUCUGAAACUUACCUGUCACGCACAGGUAGAGCAGUGCUAGCUAGCAUUAC: 0.457
GGUGCAAACUACCACGCCUGGCAGACCCACCAUUUCUUUGCUUUGGAAAGGUAAUUUAUGAUUAACUUAGAUAAUAGGUAAAAGCGACCUUACAAAAAACAUAAUUAUCU: 0.57
AUAGGCAACUUGGUACUAUCUUAUUCUGAGUAGAGAGUGGAGAAAGUAUUUUCAGACUGAAGAAAACUUUGAAAAGUCAGGAGCUAAGCUGCUCGGAGCUCAGUGCCGCA: 1.56
AGUUAUGUAUUUUUUACAUUAGUGCCAAGUAUAUAGAAGGAUGACAGCAAAAACAGUGCCUCUUUGUGCACAAUCCUUUUAAAGUAGCAUUCUUACUUGUUAGAAAUGUA: 0.442

Block 3 — method: protein binding microarray; form: double-stranded DNA, one strand shown; matrix: in vitro; tested at: not given; relative to: not given; reading: higher = stronger binding; measurement: E-score
Target: Histone acetyltransferase KAT6A, both winged helices, GST fusion (KAT6A, Homo sapiens, UniProt Q92794, residues 1-181)
Setting: 8-mer, flanks averaged, mean of 2 arrays, mostly near background
Target sequence (chain): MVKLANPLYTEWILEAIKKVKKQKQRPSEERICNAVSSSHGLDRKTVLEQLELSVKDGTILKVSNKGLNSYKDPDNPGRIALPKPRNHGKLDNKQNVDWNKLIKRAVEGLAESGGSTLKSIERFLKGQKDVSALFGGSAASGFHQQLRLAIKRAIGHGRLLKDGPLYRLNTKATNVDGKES
AACGCGTA: 0.26
AGTTTTAC: 0.044
CGATGCGC: 0.287
GCCTCCCC: 0.0604
TAGGGCCA: -0.197
CTGGTACC: -0.0457
GACAATCC: 0.0354
AATCGACG: 0.106
AAGGCAGT: -0.183
GCTCGAGC: 0.166
GATACCTA: -0.0561
ATTAGAAA: -0.109
CCCGCGCG: 0.406
GGGCGCCA: 0.215
CTGCTTCC: -0.0407
CGGCCCTA: 0.112
AATGCTCT: -0.103
ACTGATGC: -0.075
CAGCCAAC: -0.0352
CCAGGTCC: -0.102
ATCGGGCC: 0.00818

Block 4 — method: protein-binding microarray; form: double-stranded DNA, one strand shown; matrix: in vitro; tested at: 2200 nM top; setting: 60-bp whole probe; together with: salmon DNA 0.4 mg/ml; relative to: random background probes; reading: higher = stronger binding; measurement: fitted relative affinity; all sequences stand within: GCCTAGCAC … GTCTTGATTCGCTTGACGCTGCTG
Target: Interferon regulatory factor 7, full length, phosphomimetic (IRF7, Homo sapiens, UniProt Q92985, residues 1-503, S471D/S472D/S475D/S476D/S477D/S483D/S484D/S487D)
UniProt Q92985, sequence (whole entry, unmodified, looked up): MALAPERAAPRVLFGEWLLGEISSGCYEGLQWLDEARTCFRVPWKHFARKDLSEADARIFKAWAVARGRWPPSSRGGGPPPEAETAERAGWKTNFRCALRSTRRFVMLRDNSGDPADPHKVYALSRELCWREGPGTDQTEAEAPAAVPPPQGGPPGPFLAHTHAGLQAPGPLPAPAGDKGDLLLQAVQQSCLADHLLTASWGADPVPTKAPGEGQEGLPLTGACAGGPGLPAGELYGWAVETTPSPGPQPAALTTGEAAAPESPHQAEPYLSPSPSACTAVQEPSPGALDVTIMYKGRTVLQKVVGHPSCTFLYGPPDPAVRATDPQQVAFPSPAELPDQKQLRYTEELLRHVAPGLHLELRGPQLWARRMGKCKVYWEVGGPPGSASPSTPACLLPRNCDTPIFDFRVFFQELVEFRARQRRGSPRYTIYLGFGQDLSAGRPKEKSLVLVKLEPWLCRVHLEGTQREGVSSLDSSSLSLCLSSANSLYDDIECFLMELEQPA
TTAGGTATCGGGACTAGGTTAGTGCTA: -0.295 z-score
GACGGTCTCAGTCTCGAGACGTGCTAG: 0.0321 z-score
TTAGGTATCGACTATTGGTTAGTGCTA: -0.0105 z-score
TCACCTCTCACGCATCTGACTGTGCTA: 1.55 z-score
TTAGGTTTCGGTTGCGGTTAGTGCTAG: 7.76 z-score
TCACTTGTCCCTCCGGGACTGTGCTAG: 0.417 z-score
GACGGACTGGTGTTTCGGGACGTGCTA: 0.546 z-score
TTAGGTTCCGACTATCGGTTAGTGCTA: 0.731 z-score
GACGATTTCGGGTATCGAGGCGTGCTA: 2.52 z-score
TCAGCTATGTTGTCCAGGACTGTGCTA: 0.441 z-score
ATATACCTGTATATCTTCAGGTGCTAG: 0.946 z-score
GACGGTTTCCTTTCTCTGACGTGCTAG: 4.98 z-score
TGTTTCCTCTTTCTTTGCTTGTGCTAG: 4.36 z-score
TGAAAACTAAGTTTATTAGAGTGCTAG: -1.18 z-score
GACGGACTGGTACTGGGGACGTGCTAG: -0.713 z-score
TTAGAACTGGGACTGGATTAGTGCTAG: -0.612 z-score
GACGATATCAGTCTCGATACGTGCTAG: 0.592 z-score
TTAGGACTGGGGACTCGGTTAGTGCTA: -0.589 z-score
GACGTTTTCGGGTATCGAGACGTGCTA: 5.72 z-score

For quick reference, copied from above (block 4):
TTAGGTATCGGGACTAGGTTAGTGCTA: -0.295 z-score
GACGATTTCGGGTATCGAGGCGTGCTA: 2.52 z-score
GACGGTCTCAGTCTCGAGACGTGCTAG: 0.0321 z-score
TTAGGACTGGGGACTCGGTTAGTGCTA: -0.589 z-score
TCACCTCTCACGCATCTGACTGTGCTA: 1.55 z-score
TTAGGTTTCGGTTGCGGTTAGTGCTAG: 7.76 z-score
TGAAAACTAAGTTTATTAGAGTGCTAG: -1.18 z-score
GACGGACTGGTGTTTCGGGACGTGCTA: 0.546 z-score
